Assay results from different studies.
A part holds a random share of what one study measured.

Block 1
Target: Interferon regulatory factor 7, full length, phosphomimetic (IRF7, Homo sapiens, UniProt Q92985, residues 1-503, S101K/S471D/S472D/S475D/S476D/S477D/S483D/S484D/S487D)
Method: protein-binding microarray
Molecule type: double-stranded DNA, one strand shown
Medium: in vitro
Tested at: 250 nM
Notes: 60-bp whole probe
Added: salmon DNA 0.4 mg/ml
Relative to: random background probes
Direction: higher = stronger binding
Endpoint: log fluorescence
Shared flanks, not repeated: GCCTAGCAC … GTCTTGATTCGCTTGACGCTGCTG
Target sequence (chain): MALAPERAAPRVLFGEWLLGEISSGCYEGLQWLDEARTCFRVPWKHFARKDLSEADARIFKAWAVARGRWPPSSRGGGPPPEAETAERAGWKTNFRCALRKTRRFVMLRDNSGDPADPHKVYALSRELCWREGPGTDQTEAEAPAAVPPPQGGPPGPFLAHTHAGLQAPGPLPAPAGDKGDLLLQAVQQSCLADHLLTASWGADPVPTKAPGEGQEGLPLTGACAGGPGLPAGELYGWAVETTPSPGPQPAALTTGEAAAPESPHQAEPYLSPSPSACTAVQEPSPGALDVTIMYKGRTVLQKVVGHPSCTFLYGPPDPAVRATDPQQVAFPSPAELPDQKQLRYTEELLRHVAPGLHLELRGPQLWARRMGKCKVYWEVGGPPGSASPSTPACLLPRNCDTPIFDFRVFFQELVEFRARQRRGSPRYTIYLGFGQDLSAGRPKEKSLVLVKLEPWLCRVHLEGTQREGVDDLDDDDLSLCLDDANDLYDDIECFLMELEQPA
Strand = TCTCTTCTGCTTCCTCAGGACGTGCTA; value = 0.753 z-score
Strand = TTACGTTTCCTTTCCCTTTAGTGCTAG; value = 3.36 z-score
Strand = TCATGTATATACTATATGACTGTGCTA; value = 0.26 z-score
Strand = AAGACTTTGCTCTGTGCGTAGGTGCTA; value = -0.397 z-score
Strand = GACGGTATCGACACTCGGGACGTGCTA; value = -0.162 z-score
Strand = TCAAAGCTTCCTCTCTGACTGTGCTAG; value = 0.00142 z-score
Strand = TTACGTTTCCTACTGCTTTAGTGCTAG; value = 1.61 z-score
Strand = GGCGGTTTCCTACTGCTGACGTGCTAG; value = 0.745 z-score
Strand = GACGGTCTCCTACTGCTGCCGTGCTAG; value = -0.366 z-score
Strand = AGACACCCCTTTGGTGCCACGTGCTAG; value = 0.0149 z-score
Strand = GACGGAGTGGGTATCGGGACGTGCTAG; value = -0.428 z-score
Strand = GACGGTTCCCTCTTCCTGACGTGCTAG; value = 1.02 z-score
Strand = TCACTTATCCCTAATCTCACTGTGCTA; value = 0.779 z-score
Strand = TTTTCACTTTCTTTAACTCAGTGCTAG; value = 3.34 z-score
Strand = GACGATTTCGGGACTAGAGACGTGCTA; value = 0.359 z-score
Strand = GACGGACTGGGGTCTGGGGACGTGCTA; value = -0.646 z-score
Strand = TTAGAAGTGAGTCTCGATTAGTGCTAG; value = 0.848 z-score
Strand = TTAGGTATGGGTCTCGGTTAGTGCTAG; value = 0.925 z-score
Strand = TTAGGTTTCGACTTTCAGTTAGTGCTA; value = 11.1 z-score

Block 2
Target: RNA binding protein fox-1 homolog 2, RRM domain, GST-SBP tag (RBFOX2, Homo sapiens, UniProt O43251-10, residues 100-194)
Method: RNA Bind-n-Seq
Molecule type: RNA
Medium: in vitro
Tested at: 365 nM
Notes: natural RNA segment, single round, ends assumed
Relative to: no-protein control
Direction: higher = stronger binding
Endpoint: RBNS enrichment (R)
Shared flanks, not repeated: GGGAGUUCUACAGUCCGACGAUC … UGGAAUUCUCGGGUGCCAA
Construct (chain): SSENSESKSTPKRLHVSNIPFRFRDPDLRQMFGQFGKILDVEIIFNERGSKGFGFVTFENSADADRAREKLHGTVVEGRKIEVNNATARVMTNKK
Strand = CCAGUGUCGGUGGCCCGGCACAGGGCCGUGCUCUGUCGGACUGUACGGAUUGUUCAGCUUCAGACUGACAAAUGCCUUUCUCACAAGUUCCUGCUUCUUGCCGUGAUACU; value = 0.19
Strand = CCUGCCAGCCUGUCCACAUUUGUCAUGGGCCAAGCCACAGCCUUUGAAUGAGACGGCACCCAGUAAUCUUUGGAAACAUCAGAAGCUGCUCUCCAUUGACCUGGACAAAG; value = 0.487
Strand = UAAAUGUGACUUUUAUGUCAGCCAUCGUCAGUUUCAACAUCUAGAACUAAAUAGAAAGCUAGUUGUUCCGCAGAUAGGAGUAGUCUUUAUUGUCCUGUACGGUCGGUGGC; value = 0.369
Strand = CAUGGGUGCUGUGAAGUUGAGAUGAGAAAAUGAUAUGACCUUGCUGUGGGUCUCUGGAUCCUGACCAGUUUGGACUCUGAGUUUUGGGGACCAGGACACUGCGAGGACAG; value = 0.932
Strand = UGUAAAAAGAUUCCCAAACGUGGUUACAUUAGCCAUUCAUGUAUGUCAGAAGUGCAGAAUUGGGGCACUUAAUGGUCACCUUGUAACAGUUUUGUGUAACUCCCAGUGAU; value = 1.29
Strand = CCUGUUGGCCAAGGAGAAUUUCUGCGGUGGGAGGCAGUGCUCUGCUAGUCAGGAUUGAUAAACAGCUGGGCACACCGAAACAGUGUACCAACGAAUUCACCAACCAGGGG; value = 0.292
Strand = CAGCUGACUUCCAGUACUGUGAAUCCGCCCCUGUCAGAAGUGGCUGACCCUGUUUCUCCUCAGAUGACAACCACCACUCCUGAGGUCUUUGUCCUCUCCUUGUCCCUUCA; value = 0.357
Strand = CGUCGCACUCUGAGUGGGCCAACCCCGACCGUCAGCUCUGCUGUGCUCGGUGGAUGCUGGGCCCAAGGUGUAGGCAGAAUGAUUGGCCAGCUGGCCUCUCUCAUCUCUCA; value = 0.487

Block 3
Target: Max-binding protein MNT, bHLH-zipper, MAX partner unstated (MNT, Homo sapiens, UniProt Q99583, residues 220-300)
Method: protein-binding microarray
Molecule type: double-stranded DNA, one strand shown
Medium: in vitro
Tested at: not given
Notes: k-mer, scored over probes, only values ≥0.25
Direction: higher = stronger binding
Endpoint: E-score
Construct (chain): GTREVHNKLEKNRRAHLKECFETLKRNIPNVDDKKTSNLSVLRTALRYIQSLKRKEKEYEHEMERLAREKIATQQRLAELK
Strand = CGTGGGCA; value = 0.347
Strand = AGCCCCAA; value = 0.256
Strand = CACGAGGC; value = 0.451
Strand = ACGAGGTC; value = 0.304
Strand = CGAGCCAC; value = 0.276
Strand = ACATGGTC; value = 0.412
Strand = CATGGGTC; value = 0.261
Strand = CCCCATGA; value = 0.251
Strand = ACATGCAC; value = 0.39
Strand = AGTACATG; value = 0.262
Strand = CACCTGGC; value = 0.334
Strand = GTGCACAC; value = 0.304
Strand = ACAGCATG; value = 0.428
Strand = GCACGGGA; value = 0.341
Strand = ATGTGGGC; value = 0.33
Strand = CCATGCCG; value = 0.388
Strand = ATAACCAC; value = 0.266

Block 4
Target: Ras GTPase-activating protein-binding protein 1, RRM domain (G3BP1, Homo sapiens, UniProt Q13283)
Sequence of UniProt Q13283 (whole entry, looked up): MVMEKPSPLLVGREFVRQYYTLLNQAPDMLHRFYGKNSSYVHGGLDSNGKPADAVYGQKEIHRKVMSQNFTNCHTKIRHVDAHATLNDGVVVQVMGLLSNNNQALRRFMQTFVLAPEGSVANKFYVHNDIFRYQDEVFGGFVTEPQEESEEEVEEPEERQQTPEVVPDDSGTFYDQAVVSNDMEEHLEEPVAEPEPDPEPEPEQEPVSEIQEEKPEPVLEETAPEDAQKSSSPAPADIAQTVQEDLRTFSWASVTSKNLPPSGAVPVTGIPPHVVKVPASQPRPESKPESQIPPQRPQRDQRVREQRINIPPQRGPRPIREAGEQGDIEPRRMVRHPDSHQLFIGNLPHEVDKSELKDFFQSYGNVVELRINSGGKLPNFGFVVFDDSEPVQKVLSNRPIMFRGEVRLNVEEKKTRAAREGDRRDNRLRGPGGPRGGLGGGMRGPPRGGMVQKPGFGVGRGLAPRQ
Method: RNA Bind-n-Seq
Molecule type: RNA
Medium: in vitro
Tested at: 1 µM
Notes: whole 134-nt RNA, ends assumed
Added: 150 mM KCl
Relative to: input library
Direction: higher = stronger binding
Endpoint: log2 enrichment
Shared flanks, not repeated: GGGAGUUCUACAGUCCGACGAUC … UGGAAUUCUCGGGUGUCAAGG
Strand = CAAGUCCUGUGCUACACAUCGUAUGUACCGAAUCGGCCCGGGGCCCGGCCCGGGGAAAGUAUUAUGUUACGCCGUUCGGAUCUGCACUUC; value = -0.65
Strand = UUCCAACAGUUAUGGGAUCCCAGAACCUGCUCAUGCAUACGCUCAACCUCAGACCACAACUCCUCUACCUGCAGUUUCCGGUUCUCCUGG; value = -0.0115
Strand = GUCCUGUGCUACACAUCGUAUGUACCGAAUCGGGUUUUUUUGGGUUUUUGGGAAAGGGAAAGUAUUAUGUUACGCCGUUCGGAUCUGCAC; value = 0.122
Strand = UAACUUUAGAGGAGUAUCUGAUGGAUAUGGCAGUGGACGUGGAUUUGGGGAUGGCUAUAAUGGGUAUGGAGGAGGACCUGGAGGUGGCAA; value = -0.359
Strand = CCUGUGCUACACAUCGUAUGUACCGAAUCGGGGCCCCCCGGCCCCCCGGGGCCCCCCGGGGAAAGUAUUAUGUUACGCCGUUCGGAUCUG; value = -0.647
Strand = GCAGGAAGUAAAAACAAAUGGAAAUGCUUCGGAUAGUGGCAGGGGUGGGGGUUACUAAGGAAAGGGUGGGAUGGGAGUGGGUAAAGAGUU; value = 0.662
Strand = ACCAUGCAGGUGGGCACCUUUGGGAAGUGGGGCAAGGGGGGGAUAGGGAGGGGGGUAACACUUUGGGAACAGGUGGUCCCAGGUCGUUUC; value = -0.459
Strand = UGGCCCUGGUGGCAUGCGGGGAGUAAGAGGUGGCCUCAUGGAUCGUGGUGGUCCCGGUGGAAUGUUCAGAGGUGGCCGUGGUGGAGACAG; value = 0.923
Strand = UGGCCCUGGUCGCAUGCGGGGAGGAAGAGGUGGCCUCAUGGAUCGUGGUGGUCCCGGUGGAAUGUUCAGAGGUGGCCGUGGUGGAGACAG; value = 0.913

Excerpt of the above (block 3):
Strand = AGCCCCAA; value = 0.256
Strand = CACGAGGC; value = 0.451
Strand = ACGAGGTC; value = 0.304
Strand = CGAGCCAC; value = 0.276
Strand = ACATGGTC; value = 0.412
Strand = CATGGGTC; value = 0.261
Strand = CCCCATGA; value = 0.251
